Experimental data of several laboratories.
Each numbered part is a random draw from the data of one study; scales do not carry over between parts.
Sequence of UniProt Q9BUB5 (whole entry, looked up): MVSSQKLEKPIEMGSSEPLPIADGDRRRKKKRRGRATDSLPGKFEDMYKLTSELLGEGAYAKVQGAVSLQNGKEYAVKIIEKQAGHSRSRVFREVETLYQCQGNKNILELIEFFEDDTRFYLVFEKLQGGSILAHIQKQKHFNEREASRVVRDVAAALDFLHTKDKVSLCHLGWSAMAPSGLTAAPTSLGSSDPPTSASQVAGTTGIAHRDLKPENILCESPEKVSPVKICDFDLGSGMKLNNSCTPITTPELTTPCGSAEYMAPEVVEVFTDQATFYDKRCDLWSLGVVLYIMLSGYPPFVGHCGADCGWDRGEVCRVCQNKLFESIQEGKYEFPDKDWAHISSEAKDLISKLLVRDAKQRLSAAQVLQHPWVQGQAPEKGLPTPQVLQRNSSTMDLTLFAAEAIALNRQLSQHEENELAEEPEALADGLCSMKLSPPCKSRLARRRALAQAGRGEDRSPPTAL
Sequence of UniProt Q96RR4 (whole entry, looked up): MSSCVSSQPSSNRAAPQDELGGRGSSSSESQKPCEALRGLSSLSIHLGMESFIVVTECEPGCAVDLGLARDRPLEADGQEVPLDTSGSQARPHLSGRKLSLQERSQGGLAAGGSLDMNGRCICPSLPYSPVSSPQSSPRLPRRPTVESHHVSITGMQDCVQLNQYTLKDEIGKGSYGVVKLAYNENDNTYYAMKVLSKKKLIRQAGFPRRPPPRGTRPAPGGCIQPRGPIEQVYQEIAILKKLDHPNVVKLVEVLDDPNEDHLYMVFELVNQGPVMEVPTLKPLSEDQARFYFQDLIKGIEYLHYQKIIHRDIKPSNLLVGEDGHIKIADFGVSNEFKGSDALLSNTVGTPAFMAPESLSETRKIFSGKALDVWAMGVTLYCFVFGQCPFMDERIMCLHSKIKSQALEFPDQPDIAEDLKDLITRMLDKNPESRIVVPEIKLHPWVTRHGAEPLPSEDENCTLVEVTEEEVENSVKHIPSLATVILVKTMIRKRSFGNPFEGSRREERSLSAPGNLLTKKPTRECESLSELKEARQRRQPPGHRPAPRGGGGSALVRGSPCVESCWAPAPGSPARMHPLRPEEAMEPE
Sequence of UniProt Q9HC98 (whole entry, looked up): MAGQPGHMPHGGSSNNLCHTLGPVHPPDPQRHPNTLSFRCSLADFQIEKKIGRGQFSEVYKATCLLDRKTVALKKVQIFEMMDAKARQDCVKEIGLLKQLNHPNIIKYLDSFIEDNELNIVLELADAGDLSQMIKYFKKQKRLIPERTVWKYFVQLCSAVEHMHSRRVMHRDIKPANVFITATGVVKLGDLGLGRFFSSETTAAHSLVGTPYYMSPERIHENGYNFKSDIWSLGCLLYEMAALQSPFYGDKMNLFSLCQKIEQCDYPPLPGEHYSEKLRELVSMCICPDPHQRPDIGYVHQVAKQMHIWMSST
Sequence of UniProt P49137 (whole entry, looked up): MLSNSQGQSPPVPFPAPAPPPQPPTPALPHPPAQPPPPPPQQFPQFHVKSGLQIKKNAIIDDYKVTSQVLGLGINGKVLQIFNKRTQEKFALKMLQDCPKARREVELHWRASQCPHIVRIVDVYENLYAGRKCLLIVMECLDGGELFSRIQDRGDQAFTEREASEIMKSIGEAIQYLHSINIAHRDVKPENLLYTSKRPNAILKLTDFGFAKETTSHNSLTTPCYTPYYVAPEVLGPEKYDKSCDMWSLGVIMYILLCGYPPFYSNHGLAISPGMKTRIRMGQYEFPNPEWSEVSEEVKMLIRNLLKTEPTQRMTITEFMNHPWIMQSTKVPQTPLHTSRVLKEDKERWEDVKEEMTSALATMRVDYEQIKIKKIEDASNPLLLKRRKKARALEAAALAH
Sequence of UniProt P42684 (whole entry, looked up): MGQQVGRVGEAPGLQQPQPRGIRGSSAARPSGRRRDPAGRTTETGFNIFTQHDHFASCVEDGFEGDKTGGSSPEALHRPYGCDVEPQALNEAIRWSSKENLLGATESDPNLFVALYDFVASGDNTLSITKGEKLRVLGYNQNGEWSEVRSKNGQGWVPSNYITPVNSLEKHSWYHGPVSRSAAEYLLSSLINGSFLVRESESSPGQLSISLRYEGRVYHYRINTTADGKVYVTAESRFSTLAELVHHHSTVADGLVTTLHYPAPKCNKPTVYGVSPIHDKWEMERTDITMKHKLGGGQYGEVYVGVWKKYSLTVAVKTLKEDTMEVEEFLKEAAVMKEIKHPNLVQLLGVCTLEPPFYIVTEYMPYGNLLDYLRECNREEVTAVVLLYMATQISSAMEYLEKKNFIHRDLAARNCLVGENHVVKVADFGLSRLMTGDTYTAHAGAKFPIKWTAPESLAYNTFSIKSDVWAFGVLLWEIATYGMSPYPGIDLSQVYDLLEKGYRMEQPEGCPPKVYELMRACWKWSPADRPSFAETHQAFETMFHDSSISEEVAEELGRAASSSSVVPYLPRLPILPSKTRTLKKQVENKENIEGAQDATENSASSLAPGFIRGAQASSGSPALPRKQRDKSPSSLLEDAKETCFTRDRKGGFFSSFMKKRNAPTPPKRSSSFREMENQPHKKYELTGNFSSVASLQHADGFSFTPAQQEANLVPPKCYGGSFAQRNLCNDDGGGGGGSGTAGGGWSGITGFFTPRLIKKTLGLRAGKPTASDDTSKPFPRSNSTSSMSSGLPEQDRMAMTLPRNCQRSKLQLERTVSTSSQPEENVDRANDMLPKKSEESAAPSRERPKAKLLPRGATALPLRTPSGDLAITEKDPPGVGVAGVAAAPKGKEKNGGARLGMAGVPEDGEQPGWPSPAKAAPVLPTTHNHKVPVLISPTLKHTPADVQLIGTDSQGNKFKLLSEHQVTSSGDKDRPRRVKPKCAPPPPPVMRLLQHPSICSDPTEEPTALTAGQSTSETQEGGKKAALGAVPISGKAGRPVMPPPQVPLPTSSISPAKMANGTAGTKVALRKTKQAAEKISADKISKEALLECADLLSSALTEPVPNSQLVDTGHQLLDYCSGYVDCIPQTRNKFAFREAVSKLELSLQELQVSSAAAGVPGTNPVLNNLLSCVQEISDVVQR
Sequence of UniProt P51817 (whole entry, looked up): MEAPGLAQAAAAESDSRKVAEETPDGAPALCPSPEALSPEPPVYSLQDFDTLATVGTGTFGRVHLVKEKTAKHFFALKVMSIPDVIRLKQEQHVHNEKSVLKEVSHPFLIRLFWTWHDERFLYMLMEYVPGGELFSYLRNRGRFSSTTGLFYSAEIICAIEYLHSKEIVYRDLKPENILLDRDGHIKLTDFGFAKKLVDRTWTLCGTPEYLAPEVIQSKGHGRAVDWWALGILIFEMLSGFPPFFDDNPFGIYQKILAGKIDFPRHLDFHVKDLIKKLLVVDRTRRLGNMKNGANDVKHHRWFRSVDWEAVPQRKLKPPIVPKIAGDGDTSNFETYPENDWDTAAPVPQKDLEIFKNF
Sequence of UniProt Q59H18 (whole entry, looked up): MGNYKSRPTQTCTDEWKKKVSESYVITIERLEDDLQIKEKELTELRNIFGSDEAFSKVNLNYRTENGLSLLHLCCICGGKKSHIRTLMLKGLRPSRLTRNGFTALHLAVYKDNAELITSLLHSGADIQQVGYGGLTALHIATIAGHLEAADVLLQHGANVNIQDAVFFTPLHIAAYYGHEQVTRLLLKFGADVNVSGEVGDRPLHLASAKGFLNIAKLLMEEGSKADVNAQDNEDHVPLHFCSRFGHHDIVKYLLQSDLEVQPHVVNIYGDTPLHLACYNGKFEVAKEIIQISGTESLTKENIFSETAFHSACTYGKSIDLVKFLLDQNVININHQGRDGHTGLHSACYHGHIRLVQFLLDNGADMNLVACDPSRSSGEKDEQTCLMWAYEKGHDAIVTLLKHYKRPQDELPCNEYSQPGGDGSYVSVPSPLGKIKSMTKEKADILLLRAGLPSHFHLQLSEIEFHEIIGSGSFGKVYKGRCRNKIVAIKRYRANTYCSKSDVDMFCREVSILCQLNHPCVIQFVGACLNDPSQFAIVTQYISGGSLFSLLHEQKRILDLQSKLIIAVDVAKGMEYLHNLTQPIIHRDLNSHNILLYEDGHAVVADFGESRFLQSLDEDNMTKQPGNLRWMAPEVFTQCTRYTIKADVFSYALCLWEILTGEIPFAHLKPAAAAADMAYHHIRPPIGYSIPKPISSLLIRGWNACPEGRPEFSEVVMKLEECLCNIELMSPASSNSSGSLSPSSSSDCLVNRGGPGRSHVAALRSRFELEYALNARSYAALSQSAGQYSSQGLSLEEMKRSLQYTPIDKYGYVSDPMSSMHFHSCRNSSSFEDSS

Study 1
Target: Interferon regulatory factor 3, full length, phosphomimetic (IRF3, Homo sapiens, UniProt Q14653, residues 1-427, S386D/S396D/S398D/S402D/T404D/S405D)
Method: protein-binding microarray
Form: double-stranded DNA, one strand shown
Matrix: in vitro
Concentration: 2540 nM top
Notes: 60-bp whole probe
Added: salmon DNA 0.4 mg/ml
Relative to: random background probes
Reading: higher = stronger binding
Shared flanks, not repeated: GCCTAGCAC … GTCTTGATTCGCTTGACGCTGCTG
Construct (chain): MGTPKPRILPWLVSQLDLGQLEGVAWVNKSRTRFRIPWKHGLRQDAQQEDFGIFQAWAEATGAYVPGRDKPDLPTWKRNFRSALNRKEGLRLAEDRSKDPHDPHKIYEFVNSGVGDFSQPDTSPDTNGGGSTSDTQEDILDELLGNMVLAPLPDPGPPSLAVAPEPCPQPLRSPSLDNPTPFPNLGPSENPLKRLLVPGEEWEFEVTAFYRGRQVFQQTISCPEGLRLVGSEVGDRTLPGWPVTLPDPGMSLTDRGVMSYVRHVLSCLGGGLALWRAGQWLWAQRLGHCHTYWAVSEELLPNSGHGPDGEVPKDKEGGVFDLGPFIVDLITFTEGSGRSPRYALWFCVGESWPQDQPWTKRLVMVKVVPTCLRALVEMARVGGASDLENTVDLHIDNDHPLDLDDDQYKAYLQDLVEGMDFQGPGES
| Oligonucleotide | fitted relative affinity [z-score] |
| --- | --- |
| CTGTCTGAGGACACCCTGGCGTGCTAG | 0.393 |
| GAAGGTCTCGGTTTCGGGACGTGCTAG | 3.7 |
| AACTTTCTCTGCTCTTTTCAAGTGCTA | 2.05 |
| TTTCATTTTTTTTTTCATCAGTGCTAG | 4.78 |
| TTAGAACTGAATCTCGATTAGTGCTAG | 0.122 |
| GCCGGACTGGGGTATCGGGACGTGCTA | -0.27 |
| TGAGAACTGGGGTATCGATTAGTGCTA | -0.737 |
| TTAGATTTCGGGTTTCGAGTAGTGCTA | 2.57 |

Study 2
Target: Sal-like protein 4, full length isoform B (SALL4, Homo sapiens, UniProt Q9UJQ4-2, residues 1-616)
Method: universal PBM
Form: double-stranded DNA, one strand shown
Matrix: in vitro
Concentration: not given
Notes: 8-mer, flanks averaged, mean of replicates
Reading: higher = stronger binding
Construct (chain): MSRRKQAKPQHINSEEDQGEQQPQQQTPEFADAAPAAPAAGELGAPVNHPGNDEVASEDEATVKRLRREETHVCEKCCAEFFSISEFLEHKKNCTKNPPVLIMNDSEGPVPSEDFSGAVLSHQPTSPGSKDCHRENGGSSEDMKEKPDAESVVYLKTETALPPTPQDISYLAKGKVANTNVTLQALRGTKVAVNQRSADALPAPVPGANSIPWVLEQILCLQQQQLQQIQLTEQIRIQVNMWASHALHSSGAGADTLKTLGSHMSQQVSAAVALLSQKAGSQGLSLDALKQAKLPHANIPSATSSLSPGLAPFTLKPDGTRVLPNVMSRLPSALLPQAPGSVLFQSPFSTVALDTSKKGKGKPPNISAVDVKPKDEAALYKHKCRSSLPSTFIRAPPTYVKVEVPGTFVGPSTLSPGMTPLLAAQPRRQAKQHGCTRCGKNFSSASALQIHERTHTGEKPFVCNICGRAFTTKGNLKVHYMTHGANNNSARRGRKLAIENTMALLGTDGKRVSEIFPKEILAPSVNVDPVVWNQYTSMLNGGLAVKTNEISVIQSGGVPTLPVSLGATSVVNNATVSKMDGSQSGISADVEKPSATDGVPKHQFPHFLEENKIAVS
| Oligonucleotide | E-score |
| --- | --- |
| ATTGTCAC | 0.0826 |
| AGCCAGCC | -0.293 |
| ACGTAGGG | -0.145 |
| CTAGAGGA | -0.0656 |
| AACCGAAC | -0.165 |
| CAGTAGTA | 0.091 |
| AGGGACGA | -0.155 |
| CGACATAC | 0.00692 |

Study 3
SMILES: CNC(=O)Nc1ccc2c(c1)CC[C@@]21OC(=O)N(CC(=O)N(Cc2ccc(F)cc2)[C@@H](C)C(F)(F)F)C1=O
Method: competition with immobilised ligand
Concentration: 1 µM
| target | test | remaining binding |
| --- | --- | --- |
| cAMP-dependent protein kinase catalytic subunit PRKX (PRKX, Homo sapiens, UniProt P51817) | cell-free assay | 92% |
| Cyclin-dependent kinase 2 (CDK2, Homo sapiens, UniProt P24941) | cell-free assay | 100% |
| Serine/threonine-protein kinase TNNI3K (TNNI3K, Homo sapiens, UniProt Q59H18) | cell-free assay | 97% |
| Serine/threonine-protein kinase Nek6 (NEK6, Homo sapiens, UniProt Q9HC98) | cell-free assay | 86% |
| Cyclin-dependent kinase 11A (CDK11A, Homo sapiens, UniProt Q9UQ88) | binding | 83% |
| Casein kinase I isoform epsilon (CSNK1E, Homo sapiens, UniProt P49674) | cell-free assay | 80% |
| MAP kinase-activated protein kinase 2 (MAPKAPK2, Homo sapiens, UniProt P49137) | cell-free assay | 87% |
| Phosphatidylinositol 3-kinase catalytic subunit type 3 (PIK3C3, Homo sapiens, UniProt Q8NEB9) | cell-free assay | 88% |
| MAP kinase-interacting serine/threonine-protein kinase 1 (MKNK1, Homo sapiens, UniProt Q9BUB5) | cell-free assay | 67% |
| Tyrosine-protein kinase ABL2 (ABL2, Homo sapiens, UniProt P42684) | cell-free assay | 88% |
| Epidermal growth factor receptor (EGFR, Homo sapiens, UniProt P00533, L858R/T790M) | cell-free assay | 91% |
| Calcium/calmodulin-dependent protein kinase kinase 2 (CAMKK2, Homo sapiens, UniProt Q96RR4) | cell-free assay | 76% |
| Macrophage colony-stimulating factor 1 receptor, autoinhibited (CSF1R, Homo sapiens, UniProt P07333) | cell-free assay | 90% |
| ALK tyrosine kinase receptor (ALK, Homo sapiens, UniProt Q9UM73, C1156Y) | cell-free assay | 88% |
| Tyrosine-protein kinase JAK3, JH1 (JAK3, Homo sapiens, UniProt P52333) | cell-free assay | 73% |

Study 4
Target: Tyrosine-protein kinase HCK (HCK, Homo sapiens, UniProt P08631)
Sequence of UniProt P08631 (whole entry, looked up): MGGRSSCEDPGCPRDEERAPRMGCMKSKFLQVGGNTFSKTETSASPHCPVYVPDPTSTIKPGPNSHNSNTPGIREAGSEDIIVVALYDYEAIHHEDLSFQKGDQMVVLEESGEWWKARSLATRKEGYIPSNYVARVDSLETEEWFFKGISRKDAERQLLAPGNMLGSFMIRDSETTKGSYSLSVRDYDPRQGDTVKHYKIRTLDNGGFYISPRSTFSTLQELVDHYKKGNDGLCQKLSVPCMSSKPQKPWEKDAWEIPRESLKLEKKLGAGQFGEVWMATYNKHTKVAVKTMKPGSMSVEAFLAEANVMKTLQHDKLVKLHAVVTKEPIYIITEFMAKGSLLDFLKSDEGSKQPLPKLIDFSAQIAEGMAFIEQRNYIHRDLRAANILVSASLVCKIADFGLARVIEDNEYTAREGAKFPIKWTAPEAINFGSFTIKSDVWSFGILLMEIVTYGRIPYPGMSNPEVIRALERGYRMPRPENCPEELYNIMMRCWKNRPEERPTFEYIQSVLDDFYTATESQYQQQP
Read-out: enzyme activity
Mode: inhibitor
Concentration: 0.5 µM
Relative to: control
| SMILES | remaining activity [%] |
| --- | --- |
| Cc1cccc(-c2[nH]c(C(C)(C)C)nc2-c2ccc3c(c2)OCO3)n1 | 90.7 |
| Oc1ccc(-c2nc(-c3ccncc3)c(-c3ccc(F)cc3)[nH]2)cc1 | 97.6 |
| COc1ccc(CNC(=O)Nc2ncc([N+](=O)[O-])s2)cc1 | 96.7 |
| CCOC(=O)c1c(C)[nH]c(/C=C2\C(=O)Nc3ccccc32)c1C | 92.6 |
| COc1cc2nccc(Oc3ccc(NC(=S)NC(=O)c4ccccc4C)cc3)c2cc1OC | 4.93 |
| CN(C)c1ccc(C=C2C(=O)Nc3ccccc32)cc1 | 110 |
| O=C1NC(=O)C(c2cn(CCCO)c3ncccc23)=C1c1cnccn1 | 63.4 |
| O=C1NC(=O)C(c2cn(CCCn3ccnc3)c3ccccc23)=C1Nc1ccccc1 | 97.9 |
| COc1cc2ncnc(Nc3ccc(Oc4ccccc4)cc3)c2cc1OC | 13.5 |
| Cc1nc(-c2ccccc2)c(-c2ccncc2)o1 | 98.9 |
| O=C(O)c1ccc2c3c1cccc3c(=O)n1c3ccccc3nc21 | 96.7 |
| CC(C)[C@H](CO)Nc1nc(Nc2cc(N)cc(Cl)c2)c2ncn(C(C)C)c2n1 | 27.3 |
| CO[C@H]1C[C@@H]2CC[C@@H](C)[C@@](O)(O2)C(=O)C(=O)N2CCCC[C@H]2C(=O)O[C@H]([C@H](C)C[C@@H]2CC[C@@H](O)[C@H](OC)C2)CC(=O)[C@H](C)/C=C(\C)[C@@H](O)[C@@H](OC)C(=O)[C@H](C)C[C@H](C)/C=C/C=C/C=C/1C | 102 |
| O=C(Nc1cccc(Nc2cc(Nc3cccc(C(F)(F)F)c3)ncn2)c1)C1CC1 | 99 |
| O=c1c2ccccc2[nH]c(=S)n1CCN1CCC(=C(c2ccc(F)cc2)c2ccc(F)cc2)CC1 | 114 |

Repeated from above (study 3):
| target | test | remaining binding |
| --- | --- | --- |
| MAP kinase-activated protein kinase 2 (MAPKAPK2, Homo sapiens, UniProt P49137) | cell-free assay | 87% |
| cAMP-dependent protein kinase catalytic subunit PRKX (PRKX, Homo sapiens, UniProt P51817) | cell-free assay | 92% |
| Cyclin-dependent kinase 2 (CDK2, Homo sapiens, UniProt P24941) | cell-free assay | 100% |
| ALK tyrosine kinase receptor (ALK, Homo sapiens, UniProt Q9UM73, C1156Y) | cell-free assay | 88% |
| Phosphatidylinositol 3-kinase catalytic subunit type 3 (PIK3C3, Homo sapiens, UniProt Q8NEB9) | cell-free assay | 88% |
| Cyclin-dependent kinase 11A (CDK11A, Homo sapiens, UniProt Q9UQ88) | binding | 83% |
| MAP kinase-interacting serine/threonine-protein kinase 1 (MKNK1, Homo sapiens, UniProt Q9BUB5) | cell-free assay | 67% |
